Measured values from different studies.
Lines come from different studies, so protocols differ. ± gives the spread as reported.
lasR: Transcriptional activator protein LasR (lasR, Pseudomonas aeruginosa, UniProt P25084)
Chain of UniProt P25084 (whole entry, looked up): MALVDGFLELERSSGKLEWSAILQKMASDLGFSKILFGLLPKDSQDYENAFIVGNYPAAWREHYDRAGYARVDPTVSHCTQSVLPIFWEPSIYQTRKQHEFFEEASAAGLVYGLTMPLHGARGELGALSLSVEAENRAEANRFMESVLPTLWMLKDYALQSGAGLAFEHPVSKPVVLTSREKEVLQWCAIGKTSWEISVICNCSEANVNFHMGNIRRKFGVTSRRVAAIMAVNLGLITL
Chain of UniProt Q96GD4 (whole entry, looked up): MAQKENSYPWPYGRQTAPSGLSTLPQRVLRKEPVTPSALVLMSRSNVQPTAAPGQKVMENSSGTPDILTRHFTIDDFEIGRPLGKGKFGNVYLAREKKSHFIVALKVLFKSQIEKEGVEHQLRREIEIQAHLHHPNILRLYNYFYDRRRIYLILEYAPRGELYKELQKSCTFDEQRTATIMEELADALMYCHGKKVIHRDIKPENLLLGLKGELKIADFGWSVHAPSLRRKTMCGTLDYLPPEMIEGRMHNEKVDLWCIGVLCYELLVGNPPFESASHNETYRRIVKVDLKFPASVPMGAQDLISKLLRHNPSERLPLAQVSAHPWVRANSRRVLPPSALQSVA
Chain of UniProt P32238 (whole entry, looked up): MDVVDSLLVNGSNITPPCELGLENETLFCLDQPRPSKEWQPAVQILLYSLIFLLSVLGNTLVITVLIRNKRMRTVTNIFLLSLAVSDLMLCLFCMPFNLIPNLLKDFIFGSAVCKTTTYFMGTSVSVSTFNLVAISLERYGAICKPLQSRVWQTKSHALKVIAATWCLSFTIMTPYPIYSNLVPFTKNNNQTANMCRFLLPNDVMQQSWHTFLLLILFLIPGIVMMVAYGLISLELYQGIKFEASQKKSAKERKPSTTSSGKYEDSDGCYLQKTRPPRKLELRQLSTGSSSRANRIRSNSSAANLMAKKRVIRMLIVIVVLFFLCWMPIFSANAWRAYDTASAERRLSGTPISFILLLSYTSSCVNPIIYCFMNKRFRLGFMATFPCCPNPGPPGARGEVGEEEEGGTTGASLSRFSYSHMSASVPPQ
Chain of UniProt Q9UM07 (whole entry, looked up): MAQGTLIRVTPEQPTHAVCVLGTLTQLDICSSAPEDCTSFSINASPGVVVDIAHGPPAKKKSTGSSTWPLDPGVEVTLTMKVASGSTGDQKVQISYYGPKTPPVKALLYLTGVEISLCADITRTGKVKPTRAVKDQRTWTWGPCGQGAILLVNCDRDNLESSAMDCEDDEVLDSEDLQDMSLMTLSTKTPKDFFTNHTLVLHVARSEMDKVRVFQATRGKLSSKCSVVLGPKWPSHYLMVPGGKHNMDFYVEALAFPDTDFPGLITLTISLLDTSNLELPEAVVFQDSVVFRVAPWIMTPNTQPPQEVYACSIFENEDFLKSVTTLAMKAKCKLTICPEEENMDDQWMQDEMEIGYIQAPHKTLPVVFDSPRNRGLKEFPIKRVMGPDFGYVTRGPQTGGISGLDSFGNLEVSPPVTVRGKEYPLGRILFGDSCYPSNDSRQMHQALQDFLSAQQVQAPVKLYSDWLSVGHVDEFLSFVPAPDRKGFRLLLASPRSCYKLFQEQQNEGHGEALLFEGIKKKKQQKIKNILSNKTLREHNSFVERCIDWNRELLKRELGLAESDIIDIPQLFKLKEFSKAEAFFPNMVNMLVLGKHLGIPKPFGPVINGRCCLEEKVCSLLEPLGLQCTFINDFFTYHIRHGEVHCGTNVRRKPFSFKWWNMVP
Chain of UniProt P11309 (whole entry, looked up): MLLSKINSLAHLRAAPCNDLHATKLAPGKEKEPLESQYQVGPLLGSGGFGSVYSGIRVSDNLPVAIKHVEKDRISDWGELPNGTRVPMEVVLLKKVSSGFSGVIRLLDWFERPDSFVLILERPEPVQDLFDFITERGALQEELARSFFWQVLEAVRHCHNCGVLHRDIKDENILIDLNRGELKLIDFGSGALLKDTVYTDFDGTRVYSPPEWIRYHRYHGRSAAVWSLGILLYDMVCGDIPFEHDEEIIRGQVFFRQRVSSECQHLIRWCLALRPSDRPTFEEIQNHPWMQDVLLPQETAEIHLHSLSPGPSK
Chain of UniProt Q08499 (whole entry, looked up): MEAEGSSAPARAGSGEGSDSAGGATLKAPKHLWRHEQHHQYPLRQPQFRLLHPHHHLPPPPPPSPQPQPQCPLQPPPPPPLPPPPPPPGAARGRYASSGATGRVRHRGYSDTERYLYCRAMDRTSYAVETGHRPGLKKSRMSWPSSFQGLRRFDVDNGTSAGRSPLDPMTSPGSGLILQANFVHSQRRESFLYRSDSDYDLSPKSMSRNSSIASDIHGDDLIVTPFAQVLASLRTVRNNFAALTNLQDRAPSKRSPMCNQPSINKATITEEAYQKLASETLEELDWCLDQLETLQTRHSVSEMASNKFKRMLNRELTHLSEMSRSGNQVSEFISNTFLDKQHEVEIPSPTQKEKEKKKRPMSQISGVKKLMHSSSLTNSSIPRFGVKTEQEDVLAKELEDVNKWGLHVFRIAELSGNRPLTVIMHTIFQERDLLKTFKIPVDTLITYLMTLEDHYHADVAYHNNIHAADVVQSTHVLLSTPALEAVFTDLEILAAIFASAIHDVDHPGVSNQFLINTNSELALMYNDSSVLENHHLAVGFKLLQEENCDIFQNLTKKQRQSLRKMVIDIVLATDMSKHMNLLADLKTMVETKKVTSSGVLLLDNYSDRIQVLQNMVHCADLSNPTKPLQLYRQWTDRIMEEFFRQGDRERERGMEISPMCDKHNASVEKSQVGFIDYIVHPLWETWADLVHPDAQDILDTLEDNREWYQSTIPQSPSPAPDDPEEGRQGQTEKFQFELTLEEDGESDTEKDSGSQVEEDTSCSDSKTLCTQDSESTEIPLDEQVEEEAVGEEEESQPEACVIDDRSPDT
Chain of UniProt P43403 (whole entry, looked up): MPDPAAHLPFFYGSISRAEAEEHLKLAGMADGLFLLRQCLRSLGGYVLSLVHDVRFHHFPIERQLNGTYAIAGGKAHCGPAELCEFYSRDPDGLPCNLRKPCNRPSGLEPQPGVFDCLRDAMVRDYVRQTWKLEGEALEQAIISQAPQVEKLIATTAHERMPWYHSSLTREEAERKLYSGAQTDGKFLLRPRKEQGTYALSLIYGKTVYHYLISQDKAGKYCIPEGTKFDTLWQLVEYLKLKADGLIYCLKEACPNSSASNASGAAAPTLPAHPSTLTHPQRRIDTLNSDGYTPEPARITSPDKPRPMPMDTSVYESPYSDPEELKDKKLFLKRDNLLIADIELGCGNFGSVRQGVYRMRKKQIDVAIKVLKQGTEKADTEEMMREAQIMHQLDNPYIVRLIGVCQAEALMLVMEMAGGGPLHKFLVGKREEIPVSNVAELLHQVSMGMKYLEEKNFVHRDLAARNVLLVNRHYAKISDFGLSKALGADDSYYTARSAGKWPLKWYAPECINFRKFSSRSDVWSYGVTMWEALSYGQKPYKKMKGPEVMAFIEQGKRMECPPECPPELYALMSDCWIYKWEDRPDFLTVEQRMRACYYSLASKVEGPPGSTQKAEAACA
Chain of UniProt P21802 (whole entry, looked up): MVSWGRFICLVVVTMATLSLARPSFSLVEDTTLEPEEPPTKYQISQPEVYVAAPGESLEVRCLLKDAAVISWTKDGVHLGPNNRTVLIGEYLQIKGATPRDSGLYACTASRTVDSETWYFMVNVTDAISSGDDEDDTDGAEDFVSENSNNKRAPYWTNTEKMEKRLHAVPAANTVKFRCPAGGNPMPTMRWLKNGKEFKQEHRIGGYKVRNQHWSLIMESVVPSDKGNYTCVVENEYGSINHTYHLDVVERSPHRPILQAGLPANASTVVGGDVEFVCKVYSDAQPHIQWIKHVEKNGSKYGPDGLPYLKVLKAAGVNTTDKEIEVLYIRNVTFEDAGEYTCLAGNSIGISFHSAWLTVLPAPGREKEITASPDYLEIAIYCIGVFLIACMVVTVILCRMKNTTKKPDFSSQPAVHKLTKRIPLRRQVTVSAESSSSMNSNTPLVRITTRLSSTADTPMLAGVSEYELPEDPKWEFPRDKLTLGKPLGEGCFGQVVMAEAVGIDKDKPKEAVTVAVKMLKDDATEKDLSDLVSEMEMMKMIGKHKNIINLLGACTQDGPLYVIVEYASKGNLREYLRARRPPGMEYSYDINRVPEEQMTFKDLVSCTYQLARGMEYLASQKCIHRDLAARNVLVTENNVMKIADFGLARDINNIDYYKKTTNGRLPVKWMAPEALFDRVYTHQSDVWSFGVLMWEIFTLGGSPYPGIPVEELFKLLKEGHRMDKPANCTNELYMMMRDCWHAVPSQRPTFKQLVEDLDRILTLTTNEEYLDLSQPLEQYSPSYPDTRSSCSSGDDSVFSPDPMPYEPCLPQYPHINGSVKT
Chain of UniProt P37288 (whole entry, looked up): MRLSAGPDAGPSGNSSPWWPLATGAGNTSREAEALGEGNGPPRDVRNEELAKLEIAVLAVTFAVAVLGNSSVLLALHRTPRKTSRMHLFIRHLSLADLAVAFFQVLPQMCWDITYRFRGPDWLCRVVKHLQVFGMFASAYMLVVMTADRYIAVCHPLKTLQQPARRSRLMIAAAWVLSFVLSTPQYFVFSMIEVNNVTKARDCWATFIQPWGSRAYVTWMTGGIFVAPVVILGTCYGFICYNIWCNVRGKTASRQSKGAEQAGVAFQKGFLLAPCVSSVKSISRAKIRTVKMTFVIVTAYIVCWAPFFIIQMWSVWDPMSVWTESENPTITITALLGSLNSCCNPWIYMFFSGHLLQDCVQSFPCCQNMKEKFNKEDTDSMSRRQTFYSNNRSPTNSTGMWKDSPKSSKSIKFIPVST
Chain of UniProt Q2FDS6 (whole entry, looked up): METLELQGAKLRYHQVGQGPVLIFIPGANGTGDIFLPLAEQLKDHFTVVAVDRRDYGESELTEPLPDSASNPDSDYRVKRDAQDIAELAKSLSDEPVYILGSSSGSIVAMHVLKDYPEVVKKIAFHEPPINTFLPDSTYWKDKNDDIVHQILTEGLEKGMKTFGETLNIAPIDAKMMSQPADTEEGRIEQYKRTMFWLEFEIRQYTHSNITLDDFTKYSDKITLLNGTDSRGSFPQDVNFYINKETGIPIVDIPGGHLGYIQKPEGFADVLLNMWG

With `O=C(O)c1ccccc1/C=N/Nc1nc(-c2ccccc2Cl)cs1` the inhibition was 20.8% (NPM1-ALK; enzyme activity; 1 µM).
`NCCCO.O=C(O)C(Cl)Cl` gave a herbicidal inhibition of 4% (Eclipta prostrata; 15 mg/mL, 21 days, post-emergence, greenhouse).
The TGI of `CC(C)(C)C(=O)OCOP(=O)(OCOC(=O)C(C)(C)C)C1CCCN(O)C1=O` (stereo not shown) is reported as 12.5 µM (EKVX).
For `O=C(CCCCCCCCCN=C=S)CC(=O)N[C@H]1CCOC1=O`, the inhibition was -72% (lasR; reporter gene, antagonist; Escherichia coli JLD271; 10 µM, pSC11 and pJN105L plasmids, together with: OdDHL 2 nM).
`O=C1C(Nc2ncccc2[N+](=O)[O-])CN1c1ccc(F)cc1` (stereo not shown) has an inhibition of 33% (Uncharacterized hydrolase SAUSA300_2518 (Staphylococcus aureus, UniProt Q2FDS6); enzyme activity, inhibitor; 50 µM).
`Cc1cc(Oc2nc(N3CC[C@@H](c4ccncc4)C3)ncc2F)[nH]n1` gave an IC50 of 79.4 µM (PANC-1; cell proliferation; pancreas cancer).
With `C[C@H](NCc1ccc(-c2ccc(C(F)(F)F)cc2)cc1)C(N)=O` the inhibition was 17% (GABAA receptor benzodiazepine site, rat hippocampus; binding, radioligand binding; biochemical; 1 µM, together with: [3H]Ro 15-1788 1.0 nM).
`N[C@H](C(=O)N1CCCC1)C1CCN(c2nccc3c(-c4ncc(Cl)cc4Cl)cccc23)CC1` gave an inhibition of 101% (PADI4 (Homo sapiens, UniProt Q9UM07); enzyme activity, inhibitor; 3.84 µM, together with: Ca2+ 0.25 mM).
`CC[C@H](C)[C@H](NC(=O)[C@H](CO)NC(=O)[C@H](Cc1ccc(O)cc1)NC(=O)[C@H](Cc1ccc(O)cc1)NC(=O)[C@H](CC(N)=O)NC(=O)CNC(=O)[C@H](CO)NC(=O)[C@H](Cc1ccc(O)cc1)NC(=O)[C@H](CO)NC(=O)[C@H](CO)NC(=O)[C@H](CC(N)=O)NC(=O)COCCOCCNC(=O)CN1CCN(CC(=O)O)CCN(CC(=O)O)CCN(CC(=O)O)CC1)C(=O)N[C@@H](CC(C)C)C(N)=O` [copper-64 labelled]: “maximum pancreas uptake” 16.3 %IA/cc (dynamic PET; tamoxifen-induced PDAC mouse model, pancreas; 22.5 min, CLDN4-expressing tumours).
`O=C1C=C(Br)/C(=C/Br)O1` gave an inhibition of 51% (lasR; reporter gene, antagonist; Escherichia coli JLD271; 10 µM, pSC11 and pJN105L plasmids, together with: OdDHL 2 nM).
`O=C(Nc1nccs1)c1c(O)c2c(n(Cc3ccccc3)c1=O)CCCC2` gave an inhibition of 24.5% (Uncharacterized protein (Trypanosoma brucei brucei, UniProt Q386Q8); enzyme activity, inhibitor, coupled colorimetric; 30 µM, together with: E. coli pyrophosphatase coupling).
For `CN(C)[C@H]1C[C@@]23CC[C@@]4(O2)C(=CC[C@]2(C)[C@@H](c5ccc6ccncc6c5)CC[C@H]24)C=C3[C@@H](O)[C@@H]1O`, the inhibition was -15.5% (MAP3K2 (Homo sapiens, UniProt Q9Y2U5); ATP probe labelling, inhibitor, KiNativ profiling; 0.1 µM).
`C=CC(=O)Nc1cc(-c2nn(C3CCC(N4CCN(C(C)=O)CC4)CC3)c3ncnc(N)c23)ccc1Oc1ccccc1` (stereo not shown) has an inhibition of -7.6% (CAMK2D (Homo sapiens, UniProt Q13557); inhibitor, KiNativ profiling; biochemical; 2 µM).
With `CCCCCCC(=O)N[C@H]1CCOC1=O` the inhibition was 26% (lasR; reporter gene, antagonist; Pseudomonas aeruginosa PAO-JP2; 100 µM, plasI-LVAgfp reporter, together with: OdDHL 150 nM).
For `CC(C)[C@H]1NC(=O)C[C@H]2/C=C/CCSSC[C@@H](NC1=O)C(=O)N[C@H](Cc1cccc3ccccc13)C(=O)NCC(=O)O2`, the inhibition was 2.6% (PIM1 (Homo sapiens, UniProt P11309); enzyme activity, inhibitor; 10 µM).
`O=C(CN1CN(c2ccccc2)C2(CCN(C(=O)c3cnc4[nH]ncc4c3)CC2)C1=O)NCC(F)(F)F` has an inhibition of under 50% (Ribosomal protein S6 kinase alpha-6, N-terminal kinase domain (RPS6KA6, Homo sapiens, UniProt Q9UK32); inhibitor; concentration not given).
For `CS(C)(=O)=Nc1ccc(-c2ccc(-c3nc4cc(O[C@@H]5CO[C@H]6[C@@H]5OC[C@H]6O)[nH]c4cc3F)cc2)cc1`, the inhibition was -2% (Aurora kinase B (AURKB, Homo sapiens, UniProt Q96GD4); enzyme activity, inhibitor; 10 µM).
With `COc1ccccc1-c1n[nH]c2nc(NC3CCN(C(=O)Cc4ccc(F)cc4F)CC3)ncc12` the relative abundance was 1.01 (bead binding, competition bead pull-down, item: LINJ.27.1710; Leishmania donovani axenic amastigote extract; 10 µM; baseline: vehicle).
`CCc1nnc(-c2c(OC)cc(-c3cnc4cc(-c5cnn(C)c5)ccn34)cc2OC)o1` has an inhibition of 3% (AVPR1A (Homo sapiens, UniProt P37288); agonist radioligand, radioligand binding; 10 µM, SafetyScreen44 V1a).
`COc1ccccc1-c1n[nH]c2nc(N[C@H]3CC[C@H](NS(=O)(=O)CC(C)C)CC3)ncc12` has a relative abundance of 0.6 (bead binding, competition bead pull-down, item: LINJ.06.1110; Leishmania donovani extract; 10 µM; baseline: vehicle).
With `O=c1cc(-c2ccc(O)cc2)oc2c(C3OC(CO)C(O)C(O)C3O)c(O)c(C3OC(CO)C(O)C(O)C3O)c(O)c12` (stereo not shown) the inhibition was 4.71% (PDE4D (Homo sapiens, UniProt Q08499); enzyme activity, inhibitor, radiometric; 50 µM).
The inhibition of `O=C(Cc1ccc(Br)cc1)N[C@H]1CCOC1=O` is reported as 66% (lasR; reporter gene, antagonist; Escherichia coli JLD271; 10 µM, pSC11 and pJN105L plasmids, together with: OdDHL 2 nM).
With `CSCC[C@H](NC(=O)[C@H](CCC(N)=O)NC(=O)[C@H](CCCCN)NC(=O)[C@H](CCCNC(=N)N)NC(=O)[C@H](Cc1ccc(O)cc1)NC(=O)[C@H](CCCNC(=N)N)NC(=O)[C@H](CO)NC(=O)[C@H](Cc1ccc(O)cc1)NC(=O)[C@H](CO)NC(=O)[C@H](CC(=O)O)NC(=O)[C@@H](NC(=O)[C@@H](N)Cc1ccccc1)[C@@H](C)O)C(=O)N[C@@H](C)C(=O)N[C@H](C(=O)N[C@@H](CCCCN)C(=O)N[C@@H](CCCCn1cc(C[C@H](NC(=O)CNC(=O)[C@H](CO)NC(=O)[C@H](CCCNC(=N)N)NC(=O)[C@H](CO)NC(=O)[C@H](CC(C)C)NC(=O)[C@H](CC(C)C)NC(=O)CNC(=O)[C@H](C)NC(=O)[C@H](CC(C)C)NC(=O)[C@H](CCCNC(=N)N)NC(=O)[C@H](Cc2c[nH]cn2)NC(=O)[C@@H](NC(=O)[C@@H](N)C(C)C)[C@@H](C)O)C(=O)N[C@H](C(=O)N[C@H](C(=O)N[C@@H](CCCCN)C(=O)N[C@@H](CC(N)=O)C(=O)N[C@@H](CC(N)=O)C(=O)N[C@@H](Cc2ccccc2)C(=O)N[C@H](C(=O)N2CCC[C@H]2C(=O)N[C@H](C(=O)N[C@@H](CC(N)=O)C(=O)N[C@H](C(=O)NCC(=O)N[C@@H](CO)C(=O)N[C@@H](CCCCN)C(=O)N[C@@H](C)C(=O)N[C@@H](Cc2ccccc2)C(N)=O)C(C)C)[C@@H](C)O)C(C)C)C(C)C)C(C)C)nn1)C(=O)N[C@@H](Cc1ccc(O)cc1)C(=O)N[C@@H](CC(C)C)C(=O)N[C@@H](C)C(=O)N[C@@H](C)C(=O)N[C@H](C(=O)N[C@@H](CC(C)C)C(=O)NCC(=O)N[C@@H](CCCCN)C(=O)N[C@@H](CCCNC(=N)N)C(=O)N[C@@H](Cc1ccc(O)cc1)C(=O)N[C@@H](CCCCN)C(=O)N[C@@H](CCC(N)=O)C(=O)N[C@@H](CCCNC(=N)N)C(=O)N[C@H](C(=O)N[C@@H](CCCCN)C(=O)N[C@@H](CC(N)=O)C(=O)N[C@@H](CCCCN)C(N)=O)C(C)C)C(C)C)C(C)C` the Kb was over 10 µM (ADCYAP1R1 (Homo sapiens, UniProt P41586, del89-109); cAMP, antagonist).
`O=C1NC2(CC2)COc2ncc(F)cc2[C@H]2COCCN2c2ccn3ncc1c3n2`: “organ-to-brain weight ratio” 71.7 ± 2.39% (Sprague-Dawley rat, male, heart; oral, 10 mg/kg/day, 4 weeks dosing, end of recovery).
`O=C(O)c1ccc(-c2nc(-c3ccccc3Cl)c3sccn23)cc1` has an inhibition of 47% (CCKAR (Homo sapiens, UniProt P32238); binding; 10 µM).
With `O=C1NC(=O)c2c1c1cc(F)c[n+]3c1c1c2c2cc(O)ccc2[n]1[Ru-4]312([N]=C=S)[S+]3CC[S+]1CC[S+]2CC3` (stereo not shown) the remaining activity was 134% (ZAP70 (Homo sapiens, UniProt P43403); enzyme activity; 100 nM, human enzyme, together with: 10 µM ATP; baseline: untreated).
The inhibition of `CN(/N=C/c1ccccc1C(=O)O)c1nc(-c2ccccc2Cl)cs1` is reported as 1.05% (FGFR2 (Homo sapiens, UniProt P21802); kinase activity; 1 µM).
`COc1ccc(F)cc1S(=O)(=O)Nc1cnc2c(c1)C(=O)NCCO2` has an inhibition of 1% (phosphodiesterase 4; enzyme activity, inhibitor; 10 µM).

Some of these lines once more:
For `CS(C)(=O)=Nc1ccc(-c2ccc(-c3nc4cc(O[C@@H]5CO[C@H]6[C@@H]5OC[C@H]6O)[nH]c4cc3F)cc2)cc1`, the inhibition was -2% (Aurora kinase B (AURKB, Homo sapiens, UniProt Q96GD4); enzyme activity, inhibitor; 10 µM).
With `COc1ccccc1-c1n[nH]c2nc(NC3CCN(C(=O)Cc4ccc(F)cc4F)CC3)ncc12` the relative abundance was 1.01 (bead binding, competition bead pull-down, item: LINJ.27.1710; Leishmania donovani axenic amastigote extract; 10 µM; baseline: vehicle).
`CCc1nnc(-c2c(OC)cc(-c3cnc4cc(-c5cnn(C)c5)ccn34)cc2OC)o1` has an inhibition of 3% (AVPR1A (Homo sapiens, UniProt P37288); agonist radioligand, radioligand binding; 10 µM, SafetyScreen44 V1a).
`COc1ccccc1-c1n[nH]c2nc(N[C@H]3CC[C@H](NS(=O)(=O)CC(C)C)CC3)ncc12` has a relative abundance of 0.6 (bead binding, competition bead pull-down, item: LINJ.06.1110; Leishmania donovani extract; 10 µM; baseline: vehicle).
